Assay results collected from several papers.
Each numbered part is a random draw from the data of one study; scales do not carry over between parts.

Set 1 — technique: RNAcompete; form: RNA; sample: in vitro; tested at: 20 nM; notes: 7-mer, probes averaged, single round; reference: mean of 7-mers; reading: higher = stronger binding; measurement: 7-mer Z-score
Target: PABPC1L2, full length, GST fusion (mouse, UniProt A0ABA7IW68)
Construct (chain): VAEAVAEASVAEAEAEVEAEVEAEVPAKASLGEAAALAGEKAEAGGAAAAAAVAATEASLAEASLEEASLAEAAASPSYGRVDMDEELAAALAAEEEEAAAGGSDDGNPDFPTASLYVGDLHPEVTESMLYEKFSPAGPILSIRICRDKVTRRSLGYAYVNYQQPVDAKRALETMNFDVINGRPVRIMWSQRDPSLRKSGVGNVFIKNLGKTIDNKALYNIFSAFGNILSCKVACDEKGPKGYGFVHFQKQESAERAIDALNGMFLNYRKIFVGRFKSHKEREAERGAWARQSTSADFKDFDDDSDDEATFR
GAUAGGU: -0.128
GGAAAUG: 0.0388
UGAAGCU: -0.148
CGCCACC: -0.217
GCUCGUC: -0.496
GCCACUC: -0.32
AGGCCAC: -0.0989
AUCAGCG: -0.0772

Set 2 — technique: RNA Bind-n-Seq; form: RNA; sample: in vitro; tested at: 365 nM; reference: no-protein control; reading: higher = stronger binding; measurement: RBNS enrichment (R)
Target: RNA binding protein fox-1 homolog 2, RRM domain, GST-SBP tag (RBFOX2, Homo sapiens, UniProt O43251-10, residues 100-194)
Notes: natural RNA segment, single round, ends assumed
Constant ends, left off below: GGGAGUUCUACAGUCCGACGAUC … UGGAAUUCUCGGGUGCCAA
Residues (chain): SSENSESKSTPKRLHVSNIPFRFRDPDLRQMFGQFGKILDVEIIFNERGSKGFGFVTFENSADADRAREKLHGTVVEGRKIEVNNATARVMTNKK
UGGGAAUGGGAGAGGGGCAAGCUGGCCAUACAGGGGACAUGGUCAUUCUCCGAGCCAGCUGUGUUUUACACAAAGCUGUACAAUUGUUAUUGGUUGAGGUCACAAAGAUG: 1.3
UCGGCAGCGGGCCAACUGUGGUUUCUCUCUUGCCAUGAUGACUUCUAAUUGCCAUGUAUAGUAUGUUCGGUUAGAUAACUCACUGUAAACAGACUGUAACUGCCAGGCAG: 0.345
UGAACCAAACCAACUGUGUGACUGUCUGAUGUGCCACCUCACUCAGAGGGAAGCUCUAACAUUGCCUCUGUAAUAUAAUGCUAGUGACUGUAUGUAGUACAUGUUAUAUG: 0.685
AGCUGCAAAAUCCGAUGAGACUGCCGCCAAGUAAGCCUUAGCCCGGAUGCCCACCCCUGCUGCCGCCACUGGCUGUGCCUCCCCCGCCACCUGUGUGUUCUUUUGAUACA: 0.218
AGAUCAGCAUGUGCUAUACUCCCUGCAAGAAAUAUACUGACAUGAACAGGCAGUUCUUGGAGAAGAAAGAGCAUUUCUUUAAGUACCUGGGGAAUACAGCUCUCAGUGAU: 1.76
CUGUAGUUUAGGGGUUGAUGGUGGUUGAAAUUGAUUUCUGGCUGGUUACUAAGGUGCCUGCUAGCCAUUGUAUAAAAUUAAAACAUGAAGAAUAUUUUUUUUUUGAGCAU: 1.15
GGCUUAGAGGUGAAGAGCAAGACUGGCAAGCUCCAGGAUUUCAAAUCCUUCCUGCUUAAGGACUCAGAAACAAGUCAGCGUCUGGCCAACCUCAGGCAACGGGUGGAGCA: 3.41
GGGAAGGUUGGAGCAGCCCCCAGGGAGGGGGGCACUAGGUGUCAUUGUGCCCGAUGUCUGGCUCCCCUGCAGGAGGGAGGCUCCAGGGUAAGACAGGGCUGGCAGGAGCA: 3.41

Set 3 — technique: protein-binding microarray; form: double-stranded DNA, one strand shown; sample: in vitro; tested at: 250 nM; notes: 60-bp whole probe; together with: salmon DNA 0.4 mg/ml; reference: random background probes; reading: higher = stronger binding; measurement: log fluorescence; constant ends, left off below: GCCTAGCAC … GTCTTGATTCGCTTGACGCTGCTG
Target: Interferon regulatory factor 5, full length, phosphomimetic (IRF5, Homo sapiens, UniProt Q13568-2, residues 1-514, K96S/S451D/S453D/S456D/S462D)
GACGGACTGGGGACTGGGGCCGTGCTA: -0.624 z-score
TTAGGAATCGGGTATCGGTTAGTGCTA: 4.97 z-score
TGGTTTTCCTTATTGCTTCCTGTGCTA: 1.59 z-score
TTCATTTACATTTCCAATACGTGCTAG: 1.07 z-score
GACGGTATCCTAGTGCTGACGTGCTAG: -0.288 z-score
TTAGGTTTCGTGACTGGGTTAGTGCTA: 2.26 z-score
CTTTCTCTCTGTGACACAGAGTGCTAG: 2.58 z-score
TCAGGTCTCCTTATCCTTTAGTGCTAG: -0.0966 z-score

Other studies, line by line
CC1(C)Cc2ccccc2C(C2=NC(C)(C)Cc3ccccc32)=N1
remaining compound (mouse, microsomes or S9; 2 µM, 0.5 h): < 1%
